Experimental data collected from several papers.
Each line is one published result; not all experiments were run side by side.
SRC: Proto-oncogene tyrosine-protein kinase Src (SRC, Homo sapiens, UniProt P12931)
PPO3: PPO3 (Agaricus bisporus, UniProt C7FF04)
UniProt C7FF04, sequence (whole entry, looked up): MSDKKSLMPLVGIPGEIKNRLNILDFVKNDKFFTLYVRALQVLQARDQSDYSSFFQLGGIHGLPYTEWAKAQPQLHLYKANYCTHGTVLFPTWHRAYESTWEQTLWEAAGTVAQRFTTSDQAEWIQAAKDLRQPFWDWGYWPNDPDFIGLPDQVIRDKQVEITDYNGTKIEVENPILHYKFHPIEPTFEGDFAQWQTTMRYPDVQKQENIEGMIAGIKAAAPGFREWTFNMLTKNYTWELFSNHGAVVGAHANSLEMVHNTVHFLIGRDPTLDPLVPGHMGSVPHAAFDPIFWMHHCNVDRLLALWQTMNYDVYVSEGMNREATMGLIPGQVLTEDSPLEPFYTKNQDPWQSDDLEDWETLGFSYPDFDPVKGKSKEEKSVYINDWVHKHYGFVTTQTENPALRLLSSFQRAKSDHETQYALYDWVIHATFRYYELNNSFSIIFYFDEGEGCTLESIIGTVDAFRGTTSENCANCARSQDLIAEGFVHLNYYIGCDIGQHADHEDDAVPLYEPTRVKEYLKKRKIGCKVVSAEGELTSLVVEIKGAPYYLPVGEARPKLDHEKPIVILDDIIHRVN
UniProt P17302, sequence (whole entry, looked up): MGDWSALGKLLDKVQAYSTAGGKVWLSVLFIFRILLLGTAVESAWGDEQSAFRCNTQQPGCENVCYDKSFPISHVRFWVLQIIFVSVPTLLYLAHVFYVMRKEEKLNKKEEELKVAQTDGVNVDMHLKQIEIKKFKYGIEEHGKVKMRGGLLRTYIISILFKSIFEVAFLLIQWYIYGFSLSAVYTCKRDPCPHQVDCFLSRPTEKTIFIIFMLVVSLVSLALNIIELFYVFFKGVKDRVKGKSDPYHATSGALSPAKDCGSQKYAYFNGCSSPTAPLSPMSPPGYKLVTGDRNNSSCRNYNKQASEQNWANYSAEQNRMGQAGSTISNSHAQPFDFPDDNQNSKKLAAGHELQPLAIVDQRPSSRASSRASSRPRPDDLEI
UniProt P07333, sequence (whole entry, looked up): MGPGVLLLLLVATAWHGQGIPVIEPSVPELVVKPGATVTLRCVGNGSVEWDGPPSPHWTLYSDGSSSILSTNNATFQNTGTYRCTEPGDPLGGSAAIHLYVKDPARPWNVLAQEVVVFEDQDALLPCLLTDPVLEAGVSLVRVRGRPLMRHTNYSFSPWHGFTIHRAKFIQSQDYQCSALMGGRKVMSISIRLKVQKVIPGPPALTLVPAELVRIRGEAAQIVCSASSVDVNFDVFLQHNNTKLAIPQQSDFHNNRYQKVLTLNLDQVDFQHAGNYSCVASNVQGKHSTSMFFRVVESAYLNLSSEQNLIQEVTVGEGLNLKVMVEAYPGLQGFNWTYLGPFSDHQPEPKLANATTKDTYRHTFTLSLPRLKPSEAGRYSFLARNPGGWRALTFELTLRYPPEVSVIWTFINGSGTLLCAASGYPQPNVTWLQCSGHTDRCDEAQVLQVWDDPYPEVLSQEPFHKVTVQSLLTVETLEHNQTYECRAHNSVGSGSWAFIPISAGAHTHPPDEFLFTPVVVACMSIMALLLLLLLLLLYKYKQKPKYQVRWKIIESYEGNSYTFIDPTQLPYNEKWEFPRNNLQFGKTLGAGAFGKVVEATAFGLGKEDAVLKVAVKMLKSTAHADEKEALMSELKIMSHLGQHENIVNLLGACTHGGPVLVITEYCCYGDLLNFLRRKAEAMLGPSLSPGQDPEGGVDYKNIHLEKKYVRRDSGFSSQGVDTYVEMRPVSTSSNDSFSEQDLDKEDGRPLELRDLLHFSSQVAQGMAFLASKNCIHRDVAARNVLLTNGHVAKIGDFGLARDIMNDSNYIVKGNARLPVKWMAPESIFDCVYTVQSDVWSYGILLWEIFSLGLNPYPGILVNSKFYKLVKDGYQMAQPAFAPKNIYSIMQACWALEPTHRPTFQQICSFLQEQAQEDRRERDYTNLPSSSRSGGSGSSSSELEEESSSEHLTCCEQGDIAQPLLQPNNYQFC
UniProt O14672, sequence (whole entry, looked up): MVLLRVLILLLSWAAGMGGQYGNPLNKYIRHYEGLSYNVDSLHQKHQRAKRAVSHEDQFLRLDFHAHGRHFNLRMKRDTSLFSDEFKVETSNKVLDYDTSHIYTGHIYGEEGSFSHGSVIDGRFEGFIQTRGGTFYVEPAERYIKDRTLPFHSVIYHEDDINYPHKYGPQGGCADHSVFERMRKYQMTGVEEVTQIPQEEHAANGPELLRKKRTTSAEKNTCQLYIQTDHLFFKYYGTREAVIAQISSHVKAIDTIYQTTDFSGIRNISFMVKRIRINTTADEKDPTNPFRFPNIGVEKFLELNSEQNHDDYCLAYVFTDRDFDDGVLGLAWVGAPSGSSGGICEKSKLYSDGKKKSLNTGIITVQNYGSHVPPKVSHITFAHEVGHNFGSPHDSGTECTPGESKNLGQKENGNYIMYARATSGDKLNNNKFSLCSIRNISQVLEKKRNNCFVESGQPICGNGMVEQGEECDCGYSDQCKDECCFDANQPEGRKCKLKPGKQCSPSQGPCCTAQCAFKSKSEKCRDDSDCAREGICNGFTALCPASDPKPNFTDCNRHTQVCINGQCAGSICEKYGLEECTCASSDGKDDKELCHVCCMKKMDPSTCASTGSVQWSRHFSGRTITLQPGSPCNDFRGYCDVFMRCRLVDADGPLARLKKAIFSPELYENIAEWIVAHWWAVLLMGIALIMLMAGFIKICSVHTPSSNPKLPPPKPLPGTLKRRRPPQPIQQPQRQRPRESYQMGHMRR
UniProt P41240, sequence (whole entry, looked up): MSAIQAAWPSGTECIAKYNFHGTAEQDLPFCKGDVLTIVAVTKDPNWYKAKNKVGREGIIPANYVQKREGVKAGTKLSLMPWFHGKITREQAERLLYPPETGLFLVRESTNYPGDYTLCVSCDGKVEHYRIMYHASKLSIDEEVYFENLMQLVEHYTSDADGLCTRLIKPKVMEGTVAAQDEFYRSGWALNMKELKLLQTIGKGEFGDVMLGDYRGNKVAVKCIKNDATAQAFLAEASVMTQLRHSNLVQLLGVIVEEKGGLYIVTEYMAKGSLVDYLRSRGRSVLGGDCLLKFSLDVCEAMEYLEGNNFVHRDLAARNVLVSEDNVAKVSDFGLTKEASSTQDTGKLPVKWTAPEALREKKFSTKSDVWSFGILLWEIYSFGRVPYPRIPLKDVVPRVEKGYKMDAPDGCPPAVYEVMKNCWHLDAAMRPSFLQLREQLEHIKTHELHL

CC(=O)N[C@@H](Cc1c[nH]c2ccccc12)C(=O)N[C@@H](Cc1c[nH]c2ccccc12)C(=O)N[C@@H](Cc1c[nH]c2ccccc12)C(=O)N[C@@H](Cc1c[nH]c2ccccc12)C(=O)N[C@@H](Cc1c[nH]c2ccccc12)C(=O)N[C@@H](Cc1c[nH]c2ccccc12)C(=O)NCCCC[C@@H]1NC(=O)[C@H](CCCNC(=N)N)NC(=O)[C@H](CCCNC(=N)N)NC(=O)[C@H](CCCNC(=N)N)NC(=O)[C@H](CCCNC(=N)N)NC(=O)[C@H](CCCNC(=N)N)NC(=O)[C@H](CCCNC(=N)N)NC1=O  remaining activity (SRC; enzyme activity, inhibitor, radiometric; 5 µM): 141%
N=C(N)NCCC[C@H](NC(=O)[C@@H](N)CS)C(=O)N[C@@H](CC(N)=O)C(=O)N[C@@H](CC(N)=O)C(=O)O  remaining activity (PPO3; enzyme activity, inhibitor; 200 µM): 12.9%
CC[C@H](C)[C@H](NC(=O)[C@H](CCC(=O)O)NC(=O)[C@@H](NC(=O)[C@H](CCC(N)=O)NC(=O)[C@@H](N)CCCCN)[C@@H](C)CC)C(=O)N[C@@H](CCCCN)C(=O)N[C@@H](CCCCN)C(=O)N[C@@H](Cc1ccccc1)C(=O)N[C@@H](CCCCN)C(=O)O  remaining activity (GJA1 (Homo sapiens, UniProt P17302); hemichannel charge transfer, whole-cell voltage clamp; HeLa-Cx43; 400 µM, intracellular, up to +70 mV; baseline: control): ~25%
CC1(C)CCN(Cc2ccc(C(=O)NC[C@]3(O)CCCN(c4cc(NCc5ccccc5)ncn4)C3)c(O)c2)CC1  remaining activity (CSF1R (Homo sapiens, UniProt P07333); kinase activity, radiometric; 10 µM, with: 10 µM ATP): 92%
NC(=O)C[C@H](NC(=O)[C@H](CC(N)=O)NC(=O)[C@H](CCC(=O)O)NC(=O)[C@@H](N)CS)C(=O)O  remaining activity (PPO3; enzyme activity, inhibitor; 25 µM): 80.8%
CCCc1c(OC)c(=O)c2c(O)cc(OC)c3c4c(OC)cc(O)c5c(=O)c(OC)c(CCC)c(c1c23)c54  remaining activity (protein kinase C catalytic subunit; 50 µM): > 85%
CC(C)C[C@H](NC(=O)[C@H](CC(C)C)NC(=O)[C@H](CCCNC(=N)N)NC(=O)[C@@H](N)CS)C(=O)O  remaining activity (PPO3; enzyme activity, inhibitor; 200 µM): 31.9%
N=C(N)NCCC[C@@H]1NC(=O)[C@H](Cc2c[nH]c3ccccc23)NC(=O)[C@H](CCCNC(=N)N)NC(=O)[C@H](Cc2c[nH]c3ccccc23)NC(=O)[C@H](CCCNC(=N)N)NC(=O)[C@H](Cc2c[nH]c3ccccc23)NC(=O)[C@H](CCCNC(=N)N)NC(=O)[C@H](Cc2c[nH]c3ccccc23)NC(=O)[C@H](CCCNC(=N)N)NC(=O)[C@H](Cc2c[nH]c3ccccc23)NC(=O)[C@H](CCCNC(=N)N)NC(=O)[C@H](Cc2c[nH]c3ccccc23)NC(=O)[C@H](CCCNC(=N)N)NC(=O)[C@H](Cc2c[nH]c3ccccc23)NC(=O)[C@H](CCCNC(=N)N)NC(=O)[C@H](Cc2c[nH]c3ccccc23)NC(=O)[C@H](CCCNC(=N)N)NC(=O)[C@H](Cc2c[nH]c3ccccc23)NC1=O  remaining activity (SRC; enzyme activity, inhibitor, radiometric; 5 µM): 1.4%
CCCCCCCCCCCCCCCc1ccc(COP(=O)(O)O)cc1  remaining activity (Autotaxin (ENPP2, Homo sapiens, UniProt Q13822); inhibitor; 10 µM, 2 h, with: FS-3 1 µM; baseline: control): 85.2%
CC(=O)N[C@@H](Cc1c[nH]c2ccccc12)C(=O)N[C@@H](Cc1c[nH]c2ccccc12)C(=O)N[C@@H](Cc1c[nH]c2ccccc12)C(=O)N[C@@H](Cc1c[nH]c2ccccc12)C(=O)N[C@@H](Cc1c[nH]c2ccccc12)C(=O)N[C@@H](Cc1c[nH]c2ccccc12)C(=O)N[C@@H](Cc1c[nH]c2ccccc12)C(=O)NCCCC[C@@H]1NC(=O)[C@H](CCCNC(=N)N)NC(=O)[C@H](CCCNC(=N)N)NC(=O)[C@H](CCCNC(=N)N)NC(=O)[C@H](CCCNC(=N)N)NC(=O)[C@H](CCCNC(=N)N)NC1=O  remaining activity (CSK (Homo sapiens, UniProt P41240); kinase activity, Reaction Biology radiometric; concentration not given, with: ATP 200 µM; baseline: DMSO): 69.7%
O=C(Cc1c(-c2ccccc2)n[nH]c1-c1ccccc1)NO  remaining activity (ADAM10 (Homo sapiens, UniProt O14672); enzyme activity, inhibitor; 10 µM): 73%
CC(C)C[C@H](NC(=O)[C@H](CCCNC(=N)N)NC(=O)[C@@H](N)CS)C(=O)N[C@@H](CC(N)=O)C(=O)O  remaining activity (PPO3; enzyme activity, inhibitor; 50 µM): 86.2%
O=C(CCCC[C@@H]1CCSS1)NCCC(=O)N[C@@H](Cc1cnc[nH]1)C(=O)O (mixture of isomers)  remaining activity (Trpa1 (Mus musculus, UniProt Q8BLA8); ion current, inhibitor, patch clamp; CHO; 30 µM): 3.1%

Excerpt of the above:
CC1(C)CCN(Cc2ccc(C(=O)NC[C@]3(O)CCCN(c4cc(NCc5ccccc5)ncn4)C3)c(O)c2)CC1  remaining activity (CSF1R (Homo sapiens, UniProt P07333); kinase activity, radiometric; 10 µM, with: 10 µM ATP): 92%
